Results gathered from unrelated publications.
“And” joins repeats or separate records; there may be more than shown. ± marks the error that the study gave.
Abl1 SH2 domain: Tyrosine-protein kinase ABL1, SH2 domain (Abl1, Mus musculus, UniProt P00520)
Chain of UniProt P00520 (whole entry, looked up): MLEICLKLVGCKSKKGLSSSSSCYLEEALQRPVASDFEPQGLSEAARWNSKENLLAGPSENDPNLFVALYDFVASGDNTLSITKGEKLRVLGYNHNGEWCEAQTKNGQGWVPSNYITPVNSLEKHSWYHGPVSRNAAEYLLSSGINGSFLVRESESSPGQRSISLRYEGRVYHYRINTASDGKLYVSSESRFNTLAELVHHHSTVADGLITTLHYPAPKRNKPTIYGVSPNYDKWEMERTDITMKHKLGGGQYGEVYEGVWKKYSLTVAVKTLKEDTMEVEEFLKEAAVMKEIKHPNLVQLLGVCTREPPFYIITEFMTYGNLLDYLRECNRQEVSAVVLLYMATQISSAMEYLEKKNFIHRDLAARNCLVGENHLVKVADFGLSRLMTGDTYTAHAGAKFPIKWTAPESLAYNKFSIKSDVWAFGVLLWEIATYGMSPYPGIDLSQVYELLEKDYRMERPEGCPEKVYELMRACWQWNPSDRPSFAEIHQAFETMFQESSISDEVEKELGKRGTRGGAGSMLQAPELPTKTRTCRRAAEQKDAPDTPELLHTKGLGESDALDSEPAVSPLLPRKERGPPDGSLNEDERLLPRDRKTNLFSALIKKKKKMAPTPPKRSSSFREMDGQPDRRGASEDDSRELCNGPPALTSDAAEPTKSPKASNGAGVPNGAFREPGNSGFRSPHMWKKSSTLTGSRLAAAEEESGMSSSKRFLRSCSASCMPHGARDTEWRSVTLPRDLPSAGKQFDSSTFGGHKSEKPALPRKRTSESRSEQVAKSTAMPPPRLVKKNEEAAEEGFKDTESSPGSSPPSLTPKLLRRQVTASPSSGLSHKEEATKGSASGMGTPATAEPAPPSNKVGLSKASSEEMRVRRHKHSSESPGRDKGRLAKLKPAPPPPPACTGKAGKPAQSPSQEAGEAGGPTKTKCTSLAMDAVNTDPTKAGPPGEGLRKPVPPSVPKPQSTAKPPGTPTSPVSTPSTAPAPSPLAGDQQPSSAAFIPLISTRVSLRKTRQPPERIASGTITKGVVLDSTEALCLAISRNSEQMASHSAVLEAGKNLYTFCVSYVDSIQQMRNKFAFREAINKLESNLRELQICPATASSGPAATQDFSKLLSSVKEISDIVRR
Pleckstrin homology domain-containing family A member 7: Pleckstrin homology domain-containing family A member 7 (Homo sapiens, UniProt Q6IQ23)
CYP2A6: Cytochrome P450 2A6 (CYP2A6, Homo sapiens, UniProt P11509)
Chain of UniProt P11509 (whole entry, looked up): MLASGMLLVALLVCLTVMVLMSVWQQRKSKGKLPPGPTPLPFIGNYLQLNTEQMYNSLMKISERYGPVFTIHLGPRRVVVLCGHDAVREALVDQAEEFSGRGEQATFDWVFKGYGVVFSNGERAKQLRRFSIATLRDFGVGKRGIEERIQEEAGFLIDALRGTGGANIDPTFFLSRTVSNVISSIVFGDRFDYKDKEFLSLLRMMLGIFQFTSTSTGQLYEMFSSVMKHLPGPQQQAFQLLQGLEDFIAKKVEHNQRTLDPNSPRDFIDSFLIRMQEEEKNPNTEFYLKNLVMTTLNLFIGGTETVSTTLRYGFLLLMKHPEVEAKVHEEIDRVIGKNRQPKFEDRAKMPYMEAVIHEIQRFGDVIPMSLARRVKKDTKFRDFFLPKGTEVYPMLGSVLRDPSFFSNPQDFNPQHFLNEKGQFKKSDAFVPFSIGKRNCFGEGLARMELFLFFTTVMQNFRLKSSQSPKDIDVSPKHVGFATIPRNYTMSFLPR
B1: α-TTP F165D; sequence looked up; chain MAEARSQPSAGPQLNALPDHSPLLQPGLAALRRRAREAGVPLAPLPLTDSFLLRFLRARDFDLDLAWRLLKNYYKWRAECPEISADLHPRSIIGLLKAGYHGVLRSRDPTGSKVLIYRIAHWDPKVFTAYDVFRVSLITSELIVQEVETQRNGIKAIFDLEGWQDSHAFQITPSVAKKIAAVLTDSFPLKVRGIHLINEPVIFHAVFSMIKPFLTEKIKERIHMHGNNYKQSLLQHFPDILPLEYGGEEFSMEDICQEWTNFIMKSEDYLSSISESIQ
B2: Pcf11 CID D117A; chain DTEVIVKDFNSILEELTFNSRPIITTLTKLAEENISCAQYFVDAIESRIEKCMPKQKLYAFYALDSICKNVGSPYTIYFSRNLFNLYKRTYLLVDNTTRTKLINMFKLWLNPNATGLPLFEGSALEKIEQFLIKAS
B3: α-TTP M209A; sequence looked up; chain MAEARSQPSAGPQLNALPDHSPLLQPGLAALRRRAREAGVPLAPLPLTDSFLLRFLRARDFDLDLAWRLLKNYYKWRAECPEISADLHPRSIIGLLKAGYHGVLRSRDPTGSKVLIYRIAHWDPKVFTAYDVFRVSLITSELIVQEVETQRNGIKAIFDLEGWQFSHAFQITPSVAKKIAAVLTDSFPLKVRGIHLINEPVIFHAVFSAIKPFLTEKIKERIHMHGNNYKQSLLQHFPDILPLEYGGEEFSMEDICQEWTNFIMKSEDYLSSISESIQ
B4: Rad9 754–931 (S. cerevisiae); sequence looked up; chain GKDSKEQSYVFPEGIRTADNSFLSKDDIIFGNAVWCQYTWNYKFYPGILLEVDTNQDGCWIYFETGRSLTKDEDIYYLDIRIGDAVTFDGNEYVVVGLECRSHDLNIIRCIRGYDTVHLKKKNASGLLGKRTLIKALSSISLDLSEWAKRAKIILEDNEKNKGDAYRYLRHPIRGRKS
B5: α-TTP F165A; sequence looked up; chain MAEARSQPSAGPQLNALPDHSPLLQPGLAALRRRAREAGVPLAPLPLTDSFLLRFLRARDFDLDLAWRLLKNYYKWRAECPEISADLHPRSIIGLLKAGYHGVLRSRDPTGSKVLIYRIAHWDPKVFTAYDVFRVSLITSELIVQEVETQRNGIKAIFDLEGWQASHAFQITPSVAKKIAAVLTDSFPLKVRGIHLINEPVIFHAVFSMIKPFLTEKIKERIHMHGNNYKQSLLQHFPDILPLEYGGEEFSMEDICQEWTNFIMKSEDYLSSISESIQ
Chain of UniProt P33424 (whole entry, looked up): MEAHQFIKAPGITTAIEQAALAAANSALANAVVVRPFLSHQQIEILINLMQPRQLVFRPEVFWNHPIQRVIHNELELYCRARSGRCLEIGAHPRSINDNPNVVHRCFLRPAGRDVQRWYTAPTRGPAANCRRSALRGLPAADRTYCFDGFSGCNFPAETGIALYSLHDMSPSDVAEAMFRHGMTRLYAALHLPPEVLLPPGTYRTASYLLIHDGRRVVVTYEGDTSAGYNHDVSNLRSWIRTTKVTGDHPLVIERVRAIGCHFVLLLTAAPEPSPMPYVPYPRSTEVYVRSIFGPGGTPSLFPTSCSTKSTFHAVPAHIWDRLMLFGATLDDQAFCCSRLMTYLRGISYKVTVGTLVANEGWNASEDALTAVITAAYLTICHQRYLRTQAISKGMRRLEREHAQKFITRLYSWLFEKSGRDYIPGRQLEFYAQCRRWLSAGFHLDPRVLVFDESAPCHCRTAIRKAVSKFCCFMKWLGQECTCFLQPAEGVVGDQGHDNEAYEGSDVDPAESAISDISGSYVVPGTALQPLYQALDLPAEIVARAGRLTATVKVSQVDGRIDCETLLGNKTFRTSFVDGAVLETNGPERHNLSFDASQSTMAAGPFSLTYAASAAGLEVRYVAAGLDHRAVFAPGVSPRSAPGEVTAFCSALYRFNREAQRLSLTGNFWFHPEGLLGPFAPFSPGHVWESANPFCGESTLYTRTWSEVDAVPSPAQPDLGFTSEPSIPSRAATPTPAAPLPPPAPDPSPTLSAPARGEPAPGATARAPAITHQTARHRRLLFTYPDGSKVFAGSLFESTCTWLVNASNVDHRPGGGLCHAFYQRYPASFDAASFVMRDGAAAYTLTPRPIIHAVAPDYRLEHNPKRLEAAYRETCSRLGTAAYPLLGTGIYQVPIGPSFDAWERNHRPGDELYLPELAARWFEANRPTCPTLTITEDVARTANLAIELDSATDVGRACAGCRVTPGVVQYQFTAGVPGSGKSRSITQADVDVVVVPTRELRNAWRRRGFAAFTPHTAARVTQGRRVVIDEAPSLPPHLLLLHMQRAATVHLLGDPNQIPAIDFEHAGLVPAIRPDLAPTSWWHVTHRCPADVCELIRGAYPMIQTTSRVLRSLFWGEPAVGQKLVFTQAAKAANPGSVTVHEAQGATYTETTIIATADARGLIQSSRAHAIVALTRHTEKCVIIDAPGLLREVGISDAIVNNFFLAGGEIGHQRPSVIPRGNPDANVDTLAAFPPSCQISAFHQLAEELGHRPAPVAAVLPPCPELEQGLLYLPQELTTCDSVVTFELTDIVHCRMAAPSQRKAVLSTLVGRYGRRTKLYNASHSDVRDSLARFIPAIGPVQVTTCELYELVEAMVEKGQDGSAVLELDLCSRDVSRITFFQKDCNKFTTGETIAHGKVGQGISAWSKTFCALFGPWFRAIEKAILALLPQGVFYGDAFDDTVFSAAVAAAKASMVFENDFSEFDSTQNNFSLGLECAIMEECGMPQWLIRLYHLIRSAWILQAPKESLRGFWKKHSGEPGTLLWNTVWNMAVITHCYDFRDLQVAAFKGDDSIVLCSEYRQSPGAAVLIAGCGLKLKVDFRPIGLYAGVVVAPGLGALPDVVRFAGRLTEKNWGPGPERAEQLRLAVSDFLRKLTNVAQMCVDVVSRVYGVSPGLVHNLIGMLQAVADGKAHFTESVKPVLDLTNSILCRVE
Chain of UniProt Q58293 (whole entry, looked up): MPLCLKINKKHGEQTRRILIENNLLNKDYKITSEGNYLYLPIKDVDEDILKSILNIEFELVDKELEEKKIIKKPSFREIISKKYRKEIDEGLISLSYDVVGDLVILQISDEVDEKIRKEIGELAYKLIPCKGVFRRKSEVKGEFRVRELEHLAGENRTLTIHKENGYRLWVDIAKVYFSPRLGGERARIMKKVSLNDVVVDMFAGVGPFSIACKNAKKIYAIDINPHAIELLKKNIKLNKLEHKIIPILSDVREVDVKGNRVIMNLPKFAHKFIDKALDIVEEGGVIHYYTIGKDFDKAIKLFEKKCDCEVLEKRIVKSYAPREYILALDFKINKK
Chain of UniProt Q9Y253 (whole entry, looked up): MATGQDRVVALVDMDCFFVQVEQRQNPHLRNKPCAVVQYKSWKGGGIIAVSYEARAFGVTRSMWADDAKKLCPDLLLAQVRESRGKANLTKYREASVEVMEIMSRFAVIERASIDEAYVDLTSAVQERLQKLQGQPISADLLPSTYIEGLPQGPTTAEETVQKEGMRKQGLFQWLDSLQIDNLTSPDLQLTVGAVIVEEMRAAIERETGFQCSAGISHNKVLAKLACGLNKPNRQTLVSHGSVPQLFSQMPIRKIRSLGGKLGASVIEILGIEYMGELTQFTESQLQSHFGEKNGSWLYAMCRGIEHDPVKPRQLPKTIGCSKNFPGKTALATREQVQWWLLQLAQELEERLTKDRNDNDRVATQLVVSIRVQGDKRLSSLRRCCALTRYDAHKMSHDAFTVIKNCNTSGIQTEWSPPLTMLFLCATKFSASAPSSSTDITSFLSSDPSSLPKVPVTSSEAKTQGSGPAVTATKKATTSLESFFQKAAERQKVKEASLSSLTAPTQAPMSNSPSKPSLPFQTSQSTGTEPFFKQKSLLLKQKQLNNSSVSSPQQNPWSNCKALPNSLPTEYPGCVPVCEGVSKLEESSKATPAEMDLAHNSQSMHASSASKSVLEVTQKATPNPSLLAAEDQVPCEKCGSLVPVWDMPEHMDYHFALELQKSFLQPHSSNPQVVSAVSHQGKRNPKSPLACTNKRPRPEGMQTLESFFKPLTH
Chain of UniProt Q5BJF2 (whole entry, looked up): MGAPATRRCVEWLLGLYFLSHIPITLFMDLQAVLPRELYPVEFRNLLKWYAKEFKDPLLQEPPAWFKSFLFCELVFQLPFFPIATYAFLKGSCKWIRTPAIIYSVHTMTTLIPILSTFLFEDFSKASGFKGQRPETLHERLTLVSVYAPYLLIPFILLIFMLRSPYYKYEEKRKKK
Chain of UniProt P61823 (whole entry, unmodified, looked up): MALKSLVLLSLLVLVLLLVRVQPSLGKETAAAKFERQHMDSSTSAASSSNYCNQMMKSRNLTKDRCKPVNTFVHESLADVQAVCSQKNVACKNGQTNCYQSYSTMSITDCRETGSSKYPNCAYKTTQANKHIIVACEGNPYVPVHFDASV
Chain of UniProt Q38830 (whole entry, looked up): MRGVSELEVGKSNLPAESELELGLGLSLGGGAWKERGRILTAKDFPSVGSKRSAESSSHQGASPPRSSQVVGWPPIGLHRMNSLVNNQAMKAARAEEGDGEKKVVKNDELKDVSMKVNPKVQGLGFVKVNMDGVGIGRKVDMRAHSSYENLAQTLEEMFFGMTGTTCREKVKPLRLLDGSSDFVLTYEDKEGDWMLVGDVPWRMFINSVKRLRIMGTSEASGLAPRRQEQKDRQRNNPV

The Kd of `CCCC(=O)OC[C@H](COP(=O)(O)O[C@@H]1[C@H](O)[C@H](O)[C@@H](OP(=O)(O)O)[C@H](OP(=O)(O)O)[C@H]1O)OC(=O)CCC` is reported as 800 ± 80 µM (Abl1 SH2 domain; HSQC NMR titration; SH2 domain, 135 mM KCl).
For `B1 (α-TTP F165D)`, the Kd was 0.017 µM (alpha-tocopherol transfer protein variants; binding, fluorescence titration; with: NBD-Toc).
`B2 (Pcf11 CID D117A)` has a Kd of 40 µM (Saccharomyces cerevisiae CTD-binding protein; fluorescence anisotropy competition; pH 7.4, first binding event, with: four-heptad Ser2P CTD peptide).
With `N=C(N)c1ccc(N2CCN(c3ccccc3)CC2)nc1` the Kd was 9.8 µM (Complement C1s subcomponent (Homo sapiens, UniProt P09871); binding, SPR).
`NCc1cccc(N2CCCC2)c1` has a Kd of 181 µM (Serine protease 1 (PRSS1, Bos taurus, UniProt P00760); binding, ITC; pH 8).
`B3 (α-TTP M209A)` has a Kd of 0.09 µM (alpha-tocopherol transfer protein variants; binding, fluorescence titration; with: NBD-Toc).
With `CCCCCCCC(=O)OC[C@H](COP(=O)(O)O[C@H]1[C@H](O)[C@@H](O)[C@H](OP(=O)(O)O)[C@@H](OP(=O)(O)O)[C@H]1O)OC(=O)CCCCCCC` the Kd was 8 µM (Pleckstrin homology domain-containing family A member 7; binding, ITC; pH 7.6).
The Kd of `B4 (Rad9 754–931)` is reported as 5.02 ± 0.67 µM (single-stranded DNA 35 nt; binding, EMSA; 2 h, pH 8.0, 22 °C).
With `O=P(O)(O)O[C@@H]1[C@H](O)[C@H](O)[C@@H](OP(=O)(O)O)[C@H](OP(=O)(O)O)[C@H]1O` the Kd was 500 ± 30 µM (Abl1 SH2 domain; HSQC NMR titration; SH2 domain, 135 mM KCl).
`C[S+](CC[C@H](N)C(=O)O)C[C@H]1O[C@@H](n2cnc3c(N)ncnc32)[C@H](O)[C@@H]1O` (stereo partly shown) has a Kd of 0.44 ± 0.09 µM (tRNA (guanine(37)-N(1))-methyltransferase Trm5b (trm5b, Methanocaldococcus jannaschii, UniProt Q58293); binding, substrate, rapid quench burst; pH 8.0, 55 °C, with: tRNA(Cys)).
`CO[C@H]1C[C@H](C)Cc2cc(O)cc(c2)NC(=O)/C(C)=C/CC[C@H](OC)[C@@H](OC(N)=O)/C(C)=C/[C@H](C)[C@H]1O` gave a Kd of 0.036 µM (HSP90AA1 (Homo sapiens, UniProt P07900); binding, competitive binding).
For `Nc1nc2c(ncn2[C@H]2C[C@H](O)[C@@H](COP(=O)(O)OP(=O)(O)OP(=O)(O)O)O2)c(=O)[nH]1`, the Kd was 41 ± 12 µM (DNA polymerase eta (POLH, Homo sapiens, UniProt Q9Y253); substrate; pH 8.0, 37 °C, pre-steady-state, Mg2+, with: dNTP opposite O2-Me-dT template).
The Kd of `Nc1ncnc2c1nc(SCCNc1ccc([N+](=O)[O-])c3nonc13)n2[C@@H]1O[C@@H]2COP(=O)(O)O[C@H]2[C@H]1O` is reported as 0.4 µM (Cyclic nucleotide-gated potassium channel (Spirochaeta thermophila, UniProt G0GA88); binding, fluorescence titration; amphipol A8-35; single titration).
`O=C(O)Cc1c[nH]c2ccccc12` has a Kd of 0.27 ± 0.0541 µM (IAA12/TIR1 (Arabidopsis thaliana, UniProt Q38830+Q570C0); binding, radioligand saturation binding).
With `C[C@@](O)(CCOP(=O)(O)O)CC(=O)O` the Kd was 6 µM (PMVK (Homo sapiens, UniProt Q15126); binding, NMR; pH 6.5).
With `CCCCCCCCCCCCCCCC(=O)OC[C@H](COP(=O)(O)O[C@H]1[C@H](O)[C@@H](O)[C@H](OP(=O)(O)O)[C@@H](OP(=O)(O)O)[C@H]1O)OC(=O)CCCCCCCCCCCCCCC` the Kd was 0.5 ± 0.1 µM (Pleckstrin homology domain-containing family A member 7, PH domain (Homo sapiens, UniProt Q6IQ23, D175K); binding, isothermal titration calorimetry; 23 °C, D175K mutant, with: PI in PC lipid nanodiscs).
`Nc1ncnc2nc[nH]c12` has a Kd of 80 ± 80 µM (MTAP (Homo sapiens, UniProt Q13126); binding, isothermal titration calorimetry; third site of three sequential).
With `CC(C)C[C@H](NC(=O)[C@H](Cc1ccc(O)cc1)NC(=O)[C@H](CC(N)=O)NC(=O)[C@H](CO)NC(=O)CNC(=O)[C@H](Cc1ccc(O)cc1)NC(=O)[C@H](CC(=O)O)NC(=O)CNC(=O)[C@H](Cc1ccc(O)cc1)NC(=O)[C@H](Cc1ccccc1)NC(=O)[C@@H]1CCCN1C(=O)[C@H](Cc1ccccc1)NC(=O)[C@H](CCC(=O)O)NC(=O)[C@H](CCCNC(=N)N)NC(=O)[C@H](Cc1c[nH]cn1)NC(=O)[C@H](CO)NC(=O)[C@H](Cc1c[nH]cn1)NC(=O)[C@H](Cc1c[nH]cn1)NC(=O)[C@H](CCCCN)NC(=O)[C@H](CCC(=O)O)NC(=O)[C@H](Cc1c[nH]cn1)NC(=O)[C@H](Cc1ccccc1)NC(=O)[C@H](CCCCN)NC(=O)[C@H](CCCNC(=N)N)NC(=O)[C@H](CCCNC(=N)N)NC(=O)[C@H](Cc1ccc(O)cc1)NC(=O)CNC(=O)[C@H](Cc1c[nH]cn1)NC(=O)[C@H](Cc1c[nH]cn1)NC(=O)[C@H](CCCNC(=N)N)NC(=O)[C@H](CCCCN)NC(=O)[C@H](CCC(=O)O)NC(=O)[C@H](Cc1c[nH]cn1)NC(=O)[C@H](COP(=O)(O)O)NC(=O)[C@@H](N)CC(=O)O)C(=O)N[C@@H](Cc1ccc(O)cc1)C(=O)N[C@@H](CC(=O)O)C(=O)N[C@@H](CC(N)=O)C(=O)O` the Kd was 6.3 µM (TMEM97 (Homo sapiens, UniProt Q5BJF2); binding, SPR; pH 7.4).
The Kd of `O=C(O)c1cccnc1Nc1cccc(C(F)(F)F)c1` is reported as about 142 µM (Chloride channel protein ClC-Ka, with barttin (Clcnka, Rattus norvegicus, UniProt Q06393, F256A); chloride current, blocker, voltage clamp; Xenopus oocytes; with barttin).
For `B5 (α-TTP F165A)`, the Kd was 0.052 µM (alpha-tocopherol transfer protein variants; binding, fluorescence titration; with: NBD-Toc).
With `CCCCCCCC(=O)OC[C@H](COP(=O)(O)O[C@@H]1[C@H](O)[C@H](OP(=O)(O)O)[C@@H](O)[C@H](OP(=O)(O)O)[C@H]1O)OC(=O)CCCCCCC` the Kd was 4 µM (Pleckstrin homology domain-containing family A member 7; binding, ITC; pH 7.6).
`O=C1OC2(c3cc(I)c(O)c(I)c3Oc3c2cc(I)c(O)c3I)c2c(Cl)c(Cl)c(Cl)c(Cl)c21` gave a Kd of 76 µM (L-threonine aldolase (Thermotoga maritima, UniProt Q9X266); fluorescence anisotropy; single binding event).
`Cc1cn([C@H]2C=C[C@@H](COP(=O)(O)OP(=O)(O)OP(=O)(O)O)O2)c(=O)[nH]c1=O` has a Kd of 7.6 ± 2.2 µM (Gag-Pol polyprotein, reverse transcriptase (gag-pol, Human immunodeficiency virus type 1 group M subtype B, UniProt P04585); nucleotide binding, pre-steady-state kinetics; with: 0.5 mM Mg2+).
`CC#Cc1ccc(-c2ccccc2)cc1` gave a Kd of 7 µM (CYP2A6; binding, absorbance; pH 7.4).
For `CNc1nc(I)nc2c1ncn2[C@H]1C[C@H](OP(=O)(O)O)[C@]2(COP(=O)(O)O)C[C@H]12` [iodine-125 labelled], the Kd was 0.0012 µM (P2Y purinoceptor 1 (P2ry1, Mus musculus, UniProt P49650); saturation binding; mouse platelets; 37 °C).
For `C[C@]12CCC(=O)C=C1CC[C@@H]1[C@@H]2CC[C@@]2(C)[C@H]1CC[C@]2(O)C(=O)CO`, the Kd was 0.28 ± 0.05 µM (mouse anti-cortisol Fab 17; native MS titration; 200 mM ammonium acetate; 1.5% DMSO, 0.5% methanol, with: Fab 100 nM).
`CC(=O)N[C@H]1[C@H](O[C@H]2[C@@H](O)[C@@H](CO)O[C@H](O[C@@H]3[C@H](O)[C@@H](O)[C@H](O[C@H]4[C@H](O)[C@@H](O)[C@H](O)O[C@@H]4CO)O[C@@H]3CO)[C@@H]2O)O[C@H](CO)[C@H](O)[C@@H]1O[C@@H]1O[C@H](CO)[C@H](O)[C@H](O)[C@H]1O[C@@H]1O[C@@H](C)[C@@H](O)[C@@H](O)[C@@H]1O` gave a Kd of 21 µM (RNASE1 (Bos taurus, UniProt P61823, A45C); binding; pH 7.4).
For `O=C(NN=Cc1ccc(C[n+]2ccccc2)cc1)c1ccc2ccc3ccc(C(=O)NN=Cc4ccc(C[n+]5ccccc5)cc4)nc3c2n1`, the Kd was over 10 µM (G-quadruplex DNA 22CTA (human); binding, fluorimetric titration; 100 mM KCl buffer; pH 7.2, with: 5'-Cy5-labelled G4 2 nM).
With `CSCC[C@@H]1NC(=O)[C@H](CCC(=O)O)NC(=O)[C@H](CCC(=O)O)NC(=O)[C@@H](NC(=O)[C@H](CC(=O)O)NC(=O)[C@H](CC(=O)O)NC(=O)[C@H](CC(C)C)NC(=O)[C@@H](NC(=O)[C@H](CO)NC(=O)CNC(=O)[C@H](CO)NC(=O)CNC(=O)[C@H](CCCCN)NC(=O)[C@H](CC(=O)O)NC(=O)[C@H](CC(=O)O)NC(=O)[C@H](CC(=O)O)NC(=O)[C@H](CC(=O)O)NC(=O)[C@H](CCCCN)NC(=O)[C@H](Cc2ccc(O)cc2)NC(=O)[C@H](CC(=O)O)NC(=O)[C@@H](N)CCSC)[C@@H](C)O)Cc2ccc(cc2)OCCSC[C@@H](C(=O)N[C@@H](CO)C(=O)N[C@@H](CC(=O)O)C(=O)N[C@H](C(=O)O)[C@@H](C)O)NC(=O)CNC(=O)[C@H](CC(=O)O)NC1=O` the Kd was 3.6 µM (Sonic hedgehog protein (Homo sapiens, UniProt Q15465); binding, ELISA, immobilised Shh; FLAG-tagged macrocycle).
`c1ccc2c(c1)ccc1ccccc12` has a Kd of 2.8 µM (CYP2A6; binding, absorbance; pH 7.4).
The Kd of `CCCC(=O)OCC(COP(=O)(O)OC1C(O)C(OP(=O)(O)O)C(O)C(OP(=O)(O)O)C1O)OC(=O)CCC` (stereo not shown) is reported as 90 ± 2 µM (Abl1 SH2 domain; HSQC NMR titration; SH2 domain, no KCl).
For `CC[N+](CC)(CC)CC`, the Kd was 910 ± 2770 µM (Kcnu1, Slo1 N-terminal chimera (Mus musculus, UniProt O54982); ion current, blocker, cytosolic application; pH 8.5, open-channel block, with: Ca2+ 0).
With `NC(=O)c1ncn([C@@H]2O[C@H](CO)[C@@H](O)[C@H]2O)n1` the Kd was ~0.03 µM and 0.03 µM (Non-structural polyprotein pORF1, RNA-dependent RNA polymerase (Hepatitis E virus genotype 1, UniProt P33424); binding, microscale thermophoresis).
`CCCCCCCCCCCCCCCC(=O)OC[C@H](COP(=O)(O)O[C@H]1[C@H](O)[C@@H](OP(=O)(O)O)[C@H](O)[C@@H](O)[C@H]1O)OC(=O)CCCCCCCCCCCCCCC` gave a Kd of about 25 µM (Golgi phosphoprotein 3 (GOLPH3, Homo sapiens, UniProt Q9H4A6); surface plasmon resonance; DOPC vesicles 3 mol% lipid; pH 7.5, 25 °C).
